Experimental data collected from several papers.
Lines come from different studies, so protocols differ. Values joined by “and” are separate records of one study, mostly repeats; a detail may differ. Numbers after ± are the reported error.
CDC48A: CDC48A 1-463 (Arabidopsis thaliana, UniProt P54609)
Sequence of UniProt P54609 (whole entry, looked up): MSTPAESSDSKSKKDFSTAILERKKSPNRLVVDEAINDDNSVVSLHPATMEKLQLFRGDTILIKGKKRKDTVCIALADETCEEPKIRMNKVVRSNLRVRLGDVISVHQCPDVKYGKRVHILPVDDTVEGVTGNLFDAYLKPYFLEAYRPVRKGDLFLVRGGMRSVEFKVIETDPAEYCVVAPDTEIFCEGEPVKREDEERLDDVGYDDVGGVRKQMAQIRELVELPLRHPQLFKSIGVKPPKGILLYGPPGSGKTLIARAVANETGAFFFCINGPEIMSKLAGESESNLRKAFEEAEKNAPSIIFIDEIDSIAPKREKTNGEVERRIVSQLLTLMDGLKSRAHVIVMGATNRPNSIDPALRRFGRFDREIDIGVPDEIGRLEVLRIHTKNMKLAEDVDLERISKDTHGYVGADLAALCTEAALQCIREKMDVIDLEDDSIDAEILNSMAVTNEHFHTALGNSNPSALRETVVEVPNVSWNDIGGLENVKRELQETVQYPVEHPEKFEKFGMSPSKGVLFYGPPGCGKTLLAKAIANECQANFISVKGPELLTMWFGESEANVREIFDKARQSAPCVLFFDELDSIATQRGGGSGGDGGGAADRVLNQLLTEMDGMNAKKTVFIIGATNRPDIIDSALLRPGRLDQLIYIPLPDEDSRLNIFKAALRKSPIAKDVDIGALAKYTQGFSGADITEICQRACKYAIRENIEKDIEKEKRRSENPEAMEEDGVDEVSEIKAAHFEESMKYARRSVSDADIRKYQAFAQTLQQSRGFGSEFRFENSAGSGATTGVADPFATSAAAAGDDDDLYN
B1: IGSF10 1646-1933 (Homo sapiens, UniProt Q6WRI0); sequence looked up; chain EKPRIVGGKAASFTIPANSDAFLPCEAVGNPLPTIHWTRVPSGLDLSKRKQNSRVQVLPNGTLSIQRVEIQDRGQYLCSASNLFGTDHLHVTLSVVSYPPRILERRTKEITVHSGSTVELKCRAEGRPSPTVTWILANQTVVSESSQGSRQAVVTVDGTLVLHNLSIYDRGFYKCVASNPGGQDSLLVKIQVIAAPPVILEQRRQVIVGTWGESLKLPCTAKGTPQPSVYWVLSDGTEVKPLQFTNSKLFLFSNGTLYIRNLASSDRGTYECIATSSTGSERRVVMLT
B2: ANGPT1 283-498 A451D (Homo sapiens, UniProt Q15389); chain FRDCADVYQAGFNKSGIYTIYINNMPEPKKVFCNMDVNGGGWTVIQHREDGSLDFQRGWKEYKMGFGNPSGEYWLGNEFIFAITSQRQYMLRIELMDWEGNRAYSQYDRFHIGNEKQNYRLYLKGHTGTAGKQSSLILHGADFSTKDADNDNCMCKCALMLTGGWWFDDCGPSNLNGMFYTAGQNHGKLNGIKWHYFKGPSYSLRSTTMMIRPLDF
B3: Cacna1c 1647-1777 (Mus musculus, UniProt Q01815); sequence looked up; chain NALSLQAGLRTLHDIGPEIRRAISGDLTAEEELDKAMKEAVSAASEDDIFRRAGGLFGNHVTYYQSDSRGNFPQTFATQRPLHINKTGNNQADTESPSHEKLVDSTFTPSSYSSTGSNANINNANNTALGR
B4: BRAF kinase 442-724 V600E (Homo sapiens, UniProt P15056); sequence looked up; chain GRRDSSDDWEIPDGQITVGQRIGSGSFGTVYKGKWHGDVAVKMLNVTAPTPQQLQAFKNEVGVLRKTRHVNILLFMGYSTKPQLAIVTQWCEGSSLYHHLHIIETKFEMIKLIDIARQTAQGMDYLHAKSIIHRDLKSNNIFLHEDLTVKIGDFGLATEKSRWSGSHQFEQLSGSILWMAPEVIRMQDKNPYSFQSDVYAFGIVLYELMTGQLPYSNINNRDQIIFMVGRGYLSPDLSKVRSNCPKAMKRLMAECLKKKRDERPLFPQILASIELLARSLPKI
B5: CFH 1108-1231 W1183L (Homo sapiens, UniProt P08603); sequence looked up; chain KCGPPPPIDNGDITSFPLSVYAPASSVEYQCQNLYQLEGNKRITCRNGQWSEPPKCLHPCVISREIMENYNIALRLTAKQKLYSRTGESVEFVCKRGYRLSSRSHTLRTTCWDGKLEYPTCAKR
B6: sst2 catalytic domain 245-435 (Schizosaccharomyces pombe, UniProt Q9P371); sequence looked up; chain AGTFKIHAYTEGGKPLRTIYLPKLLKKVFLDVVKPNTKKNLETCGILCGKLRQNAFFITHLVIPLQEATSDTCGTTDEASLFEFQDKHNLLTLGWIHTHPTQTCFMSSVDLHTHCSYQLMLPEAIAIVMAPSKNTSGIFRLLDPEGLQTIVKCRKPGLFHPHEGKVYTMVAQPGHVREINSKLQVVDLRVK
B7: EFR3A 721-791 (Homo sapiens, UniProt Q14156); chain SNTEEITFEALKKAIDTSGMEEQEKEKRRLVIEKFQKAPFEEIAAQCESKANLLHDRLAQILELTIRPPPS
B8: C1S 438-688 P520A/E521A/S632A (Homo sapiens, UniProt P09871); chain IIGGSDADIKNFPWQVFFDNPWAGGALINEYWVLTAAHVVEGNREPTMYVGSTSVQTSRLAKSKMLTPEHVFIHPGWKLLEVAAGRTNFDNDIALVRLKDPVKMGPTVSPICLPGTSSDYNLMDGDLGLISGWGRTEKRDRAVRLKAARLPVAPLRKCKEVKVEKPTADAEAYVFTPNMICAGGEKGMDSCKGDAGGAFAVQDPNDKTKFYAAGLVSWGPQCGTYGLYTRVKNYVDWIMKTMQENSTPRED
B9: Flrt2 35-362 (Mus musculus, UniProt Q8BLU0); chain ACPSVCRCDRNFVYCNERSLTSVPLGIPEGVTVLYLHNNQINNAGFPAELHNVQSVHTVYLYGNQLDEFPMNLPKNVRVLHLQENNIQTISRAALAQLLKLEELHLDDNSISTVGVEDGAFREAISLKLLFLSKNHLSSVPVGLPVDLQELRVDENRIAVISDMAFQNLTSLERLIVDGNLLTNKGIAEGTFSHLTKLKEFSIVRNSLSHPPPDLPGTHLIRLYLQDNQINHIPLTAFANLRKLERLDISNNQLRMLTQGVFDHLSNLKQLTARNNPWFCDCSIKWVTEWLKYIPSSLNVRGFMCQGPEQVRGMAVRELNMNLLSCPT
B10: PLXNA2 RBD 1490-1600 (Homo sapiens, UniProt O75051); sequence looked up; chain LIRQQIEYKTLILNCVNPDNENSPEIPVKVLNCDTITQVKEKILDAVYKNVPYSQRPRAVDMDLEWRQGRIARVVLQDEDITTKIEGDWKRLNTLMHYQVSDRSVVALVPK
Sequence of UniProt P26039 (whole entry, looked up): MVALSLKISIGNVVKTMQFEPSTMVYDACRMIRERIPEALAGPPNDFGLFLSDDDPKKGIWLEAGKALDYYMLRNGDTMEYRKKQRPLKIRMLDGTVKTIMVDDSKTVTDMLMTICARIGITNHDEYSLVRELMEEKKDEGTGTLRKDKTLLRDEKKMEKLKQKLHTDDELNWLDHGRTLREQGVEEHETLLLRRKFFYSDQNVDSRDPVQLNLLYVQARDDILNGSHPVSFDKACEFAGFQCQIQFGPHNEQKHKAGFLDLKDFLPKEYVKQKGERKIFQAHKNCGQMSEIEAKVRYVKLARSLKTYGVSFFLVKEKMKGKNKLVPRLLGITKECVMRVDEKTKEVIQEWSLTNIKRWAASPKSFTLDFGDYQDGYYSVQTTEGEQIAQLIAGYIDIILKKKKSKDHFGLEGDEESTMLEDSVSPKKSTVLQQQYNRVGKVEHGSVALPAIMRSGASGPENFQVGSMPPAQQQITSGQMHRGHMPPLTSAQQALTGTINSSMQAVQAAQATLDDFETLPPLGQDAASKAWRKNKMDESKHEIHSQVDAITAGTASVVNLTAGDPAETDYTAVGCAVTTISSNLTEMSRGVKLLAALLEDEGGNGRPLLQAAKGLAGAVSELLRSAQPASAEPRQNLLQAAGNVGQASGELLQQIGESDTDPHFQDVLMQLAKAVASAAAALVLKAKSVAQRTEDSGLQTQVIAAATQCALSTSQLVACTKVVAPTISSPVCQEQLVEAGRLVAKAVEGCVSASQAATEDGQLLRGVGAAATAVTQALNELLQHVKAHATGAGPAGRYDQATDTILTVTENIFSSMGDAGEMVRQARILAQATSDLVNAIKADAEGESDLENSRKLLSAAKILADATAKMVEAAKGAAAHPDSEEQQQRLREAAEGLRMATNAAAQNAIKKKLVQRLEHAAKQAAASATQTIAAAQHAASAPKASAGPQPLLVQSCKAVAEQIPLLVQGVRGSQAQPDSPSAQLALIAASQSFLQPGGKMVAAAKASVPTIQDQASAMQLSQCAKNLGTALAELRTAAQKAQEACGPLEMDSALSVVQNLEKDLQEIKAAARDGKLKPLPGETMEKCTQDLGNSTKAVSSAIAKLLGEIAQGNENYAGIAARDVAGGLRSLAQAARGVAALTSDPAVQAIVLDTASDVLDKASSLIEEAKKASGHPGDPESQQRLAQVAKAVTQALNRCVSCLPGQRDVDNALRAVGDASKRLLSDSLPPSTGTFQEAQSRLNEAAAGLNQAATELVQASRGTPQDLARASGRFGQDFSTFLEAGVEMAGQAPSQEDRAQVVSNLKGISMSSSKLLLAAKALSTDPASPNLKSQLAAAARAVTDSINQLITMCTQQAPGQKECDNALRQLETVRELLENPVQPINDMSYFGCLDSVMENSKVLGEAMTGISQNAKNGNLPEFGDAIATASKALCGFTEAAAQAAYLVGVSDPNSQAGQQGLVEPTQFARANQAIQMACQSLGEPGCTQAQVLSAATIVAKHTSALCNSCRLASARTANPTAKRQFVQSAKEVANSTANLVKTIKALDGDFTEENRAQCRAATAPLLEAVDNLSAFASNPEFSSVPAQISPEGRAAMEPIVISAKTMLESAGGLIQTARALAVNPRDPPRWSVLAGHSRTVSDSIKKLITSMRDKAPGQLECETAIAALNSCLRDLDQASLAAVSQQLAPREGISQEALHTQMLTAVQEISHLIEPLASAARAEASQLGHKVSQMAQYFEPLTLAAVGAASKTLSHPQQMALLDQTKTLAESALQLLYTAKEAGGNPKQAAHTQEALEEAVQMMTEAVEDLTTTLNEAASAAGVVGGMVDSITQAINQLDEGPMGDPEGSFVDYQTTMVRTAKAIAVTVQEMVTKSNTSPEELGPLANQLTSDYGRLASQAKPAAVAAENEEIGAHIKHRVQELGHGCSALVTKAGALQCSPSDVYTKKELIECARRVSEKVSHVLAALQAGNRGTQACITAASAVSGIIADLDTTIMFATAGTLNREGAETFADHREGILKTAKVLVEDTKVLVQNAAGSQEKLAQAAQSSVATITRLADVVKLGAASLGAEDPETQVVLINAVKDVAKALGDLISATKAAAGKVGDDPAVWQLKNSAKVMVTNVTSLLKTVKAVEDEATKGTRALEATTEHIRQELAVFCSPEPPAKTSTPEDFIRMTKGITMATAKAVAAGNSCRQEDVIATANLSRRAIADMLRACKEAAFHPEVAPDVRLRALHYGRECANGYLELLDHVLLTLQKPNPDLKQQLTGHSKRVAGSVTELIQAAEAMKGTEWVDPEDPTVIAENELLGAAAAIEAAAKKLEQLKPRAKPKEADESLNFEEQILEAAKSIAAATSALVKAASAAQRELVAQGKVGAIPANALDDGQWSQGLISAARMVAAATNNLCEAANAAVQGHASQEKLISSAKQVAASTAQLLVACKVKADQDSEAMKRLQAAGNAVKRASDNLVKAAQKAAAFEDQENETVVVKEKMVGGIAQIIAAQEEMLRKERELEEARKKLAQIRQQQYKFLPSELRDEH
Sequence of UniProt P27986 (whole entry, unmodified, looked up): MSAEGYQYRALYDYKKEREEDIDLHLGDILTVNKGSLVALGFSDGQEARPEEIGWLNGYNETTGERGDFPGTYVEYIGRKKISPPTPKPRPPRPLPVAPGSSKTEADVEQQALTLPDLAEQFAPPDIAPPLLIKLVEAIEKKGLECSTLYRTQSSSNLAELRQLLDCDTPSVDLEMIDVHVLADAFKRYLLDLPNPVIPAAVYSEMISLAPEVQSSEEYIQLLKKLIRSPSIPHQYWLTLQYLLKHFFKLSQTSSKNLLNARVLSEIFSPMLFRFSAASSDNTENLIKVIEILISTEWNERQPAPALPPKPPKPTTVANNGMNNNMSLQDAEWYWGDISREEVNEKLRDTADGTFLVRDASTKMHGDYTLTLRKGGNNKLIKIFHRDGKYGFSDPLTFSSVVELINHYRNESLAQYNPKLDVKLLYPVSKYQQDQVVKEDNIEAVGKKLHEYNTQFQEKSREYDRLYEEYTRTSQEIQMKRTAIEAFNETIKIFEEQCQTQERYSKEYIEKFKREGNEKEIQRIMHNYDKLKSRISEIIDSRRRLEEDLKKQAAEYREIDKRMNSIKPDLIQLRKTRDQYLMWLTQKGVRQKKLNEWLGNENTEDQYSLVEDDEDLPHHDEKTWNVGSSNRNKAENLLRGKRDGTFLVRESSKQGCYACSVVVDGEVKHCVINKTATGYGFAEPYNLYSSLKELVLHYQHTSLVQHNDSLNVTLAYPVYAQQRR
Sequence of UniProt P05155 (whole entry, looked up): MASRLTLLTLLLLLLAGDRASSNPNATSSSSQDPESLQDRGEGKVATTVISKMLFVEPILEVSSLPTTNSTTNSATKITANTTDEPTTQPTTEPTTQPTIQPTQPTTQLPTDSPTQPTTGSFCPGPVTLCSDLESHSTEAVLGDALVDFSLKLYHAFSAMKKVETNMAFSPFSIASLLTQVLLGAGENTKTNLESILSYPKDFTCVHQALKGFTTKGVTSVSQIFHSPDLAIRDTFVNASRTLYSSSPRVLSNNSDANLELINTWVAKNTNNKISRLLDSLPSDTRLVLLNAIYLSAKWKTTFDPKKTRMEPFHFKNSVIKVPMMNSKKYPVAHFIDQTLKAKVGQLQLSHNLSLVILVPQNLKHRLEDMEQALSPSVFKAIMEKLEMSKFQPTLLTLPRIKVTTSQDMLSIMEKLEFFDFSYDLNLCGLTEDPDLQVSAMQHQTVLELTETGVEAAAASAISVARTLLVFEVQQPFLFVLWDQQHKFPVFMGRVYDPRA
Sequence of UniProt P25963 (whole entry, looked up): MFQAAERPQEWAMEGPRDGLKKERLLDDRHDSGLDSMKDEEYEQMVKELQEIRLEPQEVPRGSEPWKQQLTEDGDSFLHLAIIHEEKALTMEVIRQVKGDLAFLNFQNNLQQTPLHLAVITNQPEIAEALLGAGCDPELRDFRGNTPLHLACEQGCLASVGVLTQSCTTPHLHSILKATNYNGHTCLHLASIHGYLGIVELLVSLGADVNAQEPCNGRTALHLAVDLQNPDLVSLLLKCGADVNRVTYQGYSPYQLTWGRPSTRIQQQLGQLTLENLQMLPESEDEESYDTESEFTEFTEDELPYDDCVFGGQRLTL

QEDIIRNIARHLAQVGDSMDRSIPPG (BID 79-104 (Homo sapiens, UniProt P55957); sequence looked up)  Kd (BCL2L1 1-208 N52D/N66D (Homo sapiens, UniProt Q07817-1); ITC; peptide): 1100 nM
FGA (Homo sapiens, UniProt P02671)  cross-linked residues (DSP (Homo sapiens, UniProt P15924); cross-linking MS; with: DSSO): K440 to K1647
IL2 fragment (Homo sapiens)  Kd (IL2RA ectodomain 1-217 (Homo sapiens); BLI): 3.2 nM and 7.3 nM
PKPRPPRPLPVAP (PIK3R1 87-99 (Homo sapiens))  Kd (FYN 82-144 (Homo sapiens, UniProt P06241); ITC; peptide): 41300 nM
B1 (IGSF10 1646-1933)  Kd (RET 29-635 (Homo sapiens, UniProt P07949); ITC): 56 nM
GCVRLHESCLGQQVPCCDPAATCYCVGRGDDNLKCYCR (designed peptide AgRP scaffold)  Kd (ITGAV/ITGB3 K562 cells; flow cytometry; designed binder, U87MG): 1.6 nM
ptsH fragment (Escherichia coli) (sequence not shown)  Kd (ptsI fragment (Escherichia coli); NMR titration; dilute buffer): 41400 ± 3800 nM
PKLPPKTYKREH (SOS1 proline-rich peptide, 1303-1314)  Kd (GRB2 156-215 (Homo sapiens, UniProt P62993); NMR titration; peptide): 156000 nM
FGB dimer (Homo sapiens)  Kd (CDH2 EC3 217-332 (Homo sapiens); SPR; Langmuir fit, with: CaCl2): 26.4 nM
B2 (ANGPT1 283-498 A451D)  Kd (TEK 23-748 (Homo sapiens, UniProt Q02763); SPR): 279 nM
CALCOCO1 fragment (Homo sapiens) (sequence not shown)  Kd (ARNT PAS-B domain (Homo sapiens); MST): 80000 nM
WHRSYYTWN (TR3 peptide; Fam label)  Kd (CD274 (Homo sapiens, UniProt Q9NZQ7); flow cytometry; peptide, MDA-MB-231; apparent, on cells): 482 nM
GGYMDMSKDESVDYVPML (PDGFRB residues 738-755; pY (two phosphotyrosines))  Kd (PIK3R1 80-724 (Homo sapiens, UniProt P27986); ITC; peptide): 660 ± 50 nM
GSGAGSETSV  normalised SPR binding response (human MAGI1-3/6 PDZ construct (MBP fusion); surface plasmon resonance; peptide; concentration not given; higher = stronger binding): 0 normalised RU
KLLMIIHDRREFAKFEKEKMNAKWDTGENPLYKSAVTTVVNPKYEGK (ITGB1 752-798 I782L (Homo sapiens, UniProt P05556-1); sequence looked up)  Kd (Tln1 309-405 (Mus musculus, UniProt P26039); NMR titration): 556000 nM
B3 (Cacna1c 1647-1777)  Kd (Jph2 1-440 S165T (Mus musculus, UniProt Q9ET78); ITC): 5050 nM
F9 heavy and light chains, activated (UniProt P00740)  Kd (F8 activated, A1/A2/A3-C1-C2 D519V/E665V (Homo sapiens); FXa generation, factor Xa generation rate; with: FX): 1.6 nM
PROS1 mature, fully Gla-carboxylated (Homo sapiens, UniProt P07225)  Kd (C4BPA/C4BPB mature (Homo sapiens); ELISA): 0.7 nM
B4 (BRAF kinase 442-724 V600E)  Kd (MAP2K1 (Homo sapiens, UniProt Q02750); BLI): 56.4 ± 5.54 nM
B5 (CFH 1108-1231 W1183L)  Kd (C3 996-1303 (Homo sapiens, UniProt P01024); SPR): 8200 ± 300 nM
GSGAGKETEC  binding intensity (human MAGI1-3/6 PDZ construct (MBP fusion); automated holdup; peptide, crude extract; concentration not given, uncorrected, unit not given; baseline: biotin control resin, higher = stronger binding): -0.0753
MBL-A mature, hydroxylysine, hydroxyproline in collagen (Rattus norvegicus, UniProt P19999)  Kd (C1r/C1s CUB1-EGF-CUB2 (Homo sapiens); SPR; with: CaCl2 140 mM): 112 nM
histone H3 peptide fragment, K14 lactyl-lysine  Kd (DPF2 270-391 (Homo sapiens, UniProt Q92785); ITC): 600 nM
PUX6 (Arabidopsis thaliana, UniProt F4IXN6)  Kd (CDC48A; ITC; 10 °C): 8700 ± 900 nM
B6 (sst2 catalytic domain 245-435)  Kd (UBB mature (UniProt P0CG47); ITC): 10200 ± 600 nM
petF ferredoxin (Synechocystis sp. PCC 6803, UniProt P27320)  Kd (narB M306A (Synechococcus sp. PCC 7942); UV-visible difference titration): 10700 ± 6800 nM
PUX5 fragment F304A/L311A (Arabidopsis thaliana)  Kd (CDC48A; ITC; 25 °C): 2100 ± 200 nM
GRGRGRGRGRGRGRGRGRGRGRGRGRGRGRGRGRGRGRGR ((GR)20 20 repeats; TAMRA label N-terminal)  Kd (FUS 1-214 (Homo sapiens, UniProt P35637); fluorescence polarisation; peptide): 52.3 ± 13.9 nM
NEDIDQMFSTLLGEMDLLTQS (RIAM talin-binding site peptide 5-25 (Mus musculus, UniProt Q8R5A3); FITC label; sequence looked up)  Kd (Tln1 1-405 (Mus musculus, UniProt P26039); fluorescence polarization; peptide; with: FITC-labeled peptide 20 nM): 86000 nM
KLLMIIHDRREFAKFEEERMNAKWDTGENPIYKSAVTTVVNPKYEGK (ITGB1 752-798 K768E/K770R (Homo sapiens, UniProt P05556-1); sequence looked up)  Kd (Tln1 309-405 (Mus musculus, UniProt P26039); NMR titration): 253000 nM
B7 (EFR3A 721-791)  Kd (TTC7A/FAM126A FAM126A 1-308; BLI): 0.718 nM
B8 (C1S 438-688 P520A/E521A/S632A)  Kd (SERPING1 111-500 (Homo sapiens, UniProt P05155); SPR; steady-state, with: Ca2+): 10100 nM
B9 (Flrt2 35-362)  Kd (Unc5D 31-382 (Rattus norvegicus, UniProt F1LW30); SPR): 300 nM
LPDTDDRHRIEEKRKRTYETFKSIMKKSPANGP (Rela 289-321 F318A (Mus musculus, UniProt Q04207); sequence looked up)  Kd (NFKBIA 67-206 (Homo sapiens, UniProt P25963); ITC; peptide): 2700 ± 700 nM
B10 (PLXNA2 RBD 1490-1600)  Kd (RND1 5-200 (Homo sapiens, UniProt Q92730); SPR): 8610 ± 1980 nM
SCN2A IQ region I1911V (Homo sapiens) (sequence not shown)  Kd (CALM1 (Homo sapiens, UniProt P0DP23); fluorescence titration; pH 7.4, 22 °C, with: calcium): 160 nM
FGG (Homo sapiens, UniProt P02679)  cross-linked residues (LAMC1 (Homo sapiens, UniProt P11047); cross-linking MS; with: DSSO): K231 to K1584

Repeated from above:
WHRSYYTWN (TR3 peptide; Fam label)  Kd (CD274 (Homo sapiens, UniProt Q9NZQ7); flow cytometry; peptide, MDA-MB-231; apparent, on cells): 482 nM
PROS1 mature, fully Gla-carboxylated (Homo sapiens, UniProt P07225)  Kd (C4BPA/C4BPB mature (Homo sapiens); ELISA): 0.7 nM
PUX5 fragment F304A/L311A (Arabidopsis thaliana)  Kd (CDC48A; ITC; 25 °C): 2100 ± 200 nM
CALCOCO1 fragment (Homo sapiens) (sequence not shown)  Kd (ARNT PAS-B domain (Homo sapiens); MST): 80000 nM
B3 (Cacna1c 1647-1777)  Kd (Jph2 1-440 S165T (Mus musculus, UniProt Q9ET78); ITC): 5050 nM
